# Published values from different studies.
# Lines come from different studies, so protocols differ. ± gives the spread as reported.
# Transcriptional regulator ComR: Transcriptional regulator ComR (Streptococcus mutans serotype c, UniProt Q8DWI6)
# P2RY2: P2Y purinoceptor 2 (P2RY2, Homo sapiens, UniProt P41231)
# ESR1: Estrogen receptor (ESR1, Homo sapiens, UniProt P03372)
# SSTR2: Somatostatin receptor type 2 (SSTR2, Homo sapiens, UniProt P30874)
# P2RY4: P2Y purinoceptor 4 (P2RY4, Homo sapiens, UniProt P51582)
# P2Y purinoceptor 1: P2Y purinoceptor 1 (Meleagris gallopavo, UniProt P49652)
Substance,target or system,assay,test system,conditions,measurement,value
CC(C)C[C@H](NC(=O)[C@H](CO)NC(=O)[C@H](Cc1c[nH]c2ccccc12)NC(=O)[C@H](Cc1c[nH]c2ccccc12)NC(=O)[C@H](C)NC(=O)[C@H](CC(C)C)NC(=O)CN)C(=O)O,Transcriptional regulator ComR,,Streptococcus mutans,,EC50,1000 nM
[BH3-][P+](O)(OP(=O)(O)OC[C@H]1O[C@@H](n2ccc(=O)[nH]c2=O)[C@H](O)[C@@H]1O)OP(=O)(O)OP(=O)(O)OC[C@H]1O[C@@H](n2ccc(=O)[nH]c2=O)[C@H](O)[C@@H]1O (stereo partly shown),P2RY2,"intracellular calcium rise, agonist",1321N1 expressing human P2Y2,37 °C,EC50,> 100000 nM
OC(c1ccc(Cl)cc1)(c1ccc(Cl)cc1)C(Cl)(Cl)Cl,ESR1,"reporter gene, agonist, luciferase",,,EC50,1700 nM
CC(C)C[C@H](NC(=O)[C@@H](N)[C@@H](C)O)C(=O)N[C@@H](CCC(N)=O)C(=O)N1CCC[C@H]1C(=O)N1CCC[C@H]1C(=O)N[C@@H](C)C(=O)N[C@@H](CO)C(=O)N[C@@H](CO)C(=O)N[C@@H](CCCNC(=N)N)C(=O)N[C@@H](CCCNC(=N)N)C(=O)N[C@@H](CCCNC(=N)N)C(=O)N[C@@H](Cc1c[nH]cn1)C(=O)N[C@@H](Cc1ccccc1)C(=O)N[C@@H](Cc1c[nH]cn1)C(=O)N[C@@H](Cc1c[nH]cn1)C(=O)N[C@@H](C)C(=O)N[C@@H](CC(C)C)C(=O)N1CCC[C@H]1C(=O)N1CCC[C@H]1C(=O)N[C@@H](C)C(=O)N[C@@H](CCCNC(=N)N)C(=O)O,"C3a anaphylatoxin chemotactic receptor (C3AR1, Homo sapiens, UniProt Q16581)","β-arrestin recruitment, agonist",,,EC50,10300 nM
"RmS-6, glycosylated (Rhipicephalus microplus) (sequence not shown)",F2 thrombin (Bos taurus),"chromogenic substrate hydrolysis, inhibitor",,1 µM,protease inhibition,< 20%
CC(C)[C@H](NC(=O)[C@@H]1CSSC[C@H](NC(=O)[C@@H](N)Cc2c[nH]cn2)C(=O)N[C@@H](Cc2ccccc2)C(=O)N[C@H](Cc2c[nH]c3ccccc23)C(=O)N[C@@H](CCCCN)C(=O)N[C@@H]([C@@H](C)O)C(=O)N1)C(=O)O,SSTR2,,,,EC50,5 nM
C[C@]1(Cc2ccccc2)COc2cc(C(=O)N3CCCCC3)ccc21,"Cannabinoid receptor 2 (CNR2, Homo sapiens, UniProt P34972)","GTPγS binding, agonist",,cell membranes,EC50,961 nM
"RmS-17, glycosylated (Rhipicephalus microplus)","PLAU (Homo sapiens, UniProt P00749)","chromogenic substrate hydrolysis, inhibitor",,1 µM,protease inhibition,< 20%
[BH3-][P+](O)(OP(=O)(O)OC[C@H]1O[C@@H](n2ccc(=O)[nH]c2=O)[C@H](O)[C@@H]1O)OP(=O)(O)OP(=O)(O)OC[C@H]1O[C@@H](n2cnc3c(N)ncnc32)[C@H](O)[C@@H]1O (stereo partly shown),P2RY4,"intracellular calcium rise, agonist",1321N1 expressing human P2Y4,37 °C,EC50,> 100000 nM
CC[C@H](C)[C@H](NC(=O)CN)C(=O)N[C@@H](CC(=O)O)C(=O)N[C@@H](Cc1c[nH]c2ccccc12)C(=O)N[C@@H](Cc1c[nH]c2ccccc12)C(=O)N[C@@H](CO)C(=O)N[C@@H](CC(C)C)C(=O)O,Transcriptional regulator ComR,,Streptococcus mutans,,EC50,9400 nM
CCCCCCCC(=O)C(O)CC (stereo not shown),"cqsS (Vibrio campbellii, UniProt A7N6S2)","bioluminescence, agonist","Vibrio harveyi, wild type",,EC50,5290 ± 967 nM
CC(C)[C@H](NC(=O)[C@@H]1CSSC[C@H](NC(=O)[C@H](CC(N)=O)NC(=O)[C@@H](N)CCCCN)C(=O)N[C@@H](Cc2ccccc2)C(=O)N[C@H](Cc2c[nH]c3ccccc23)C(=O)N[C@@H](CCCCN)C(=O)N[C@@H]([C@@H](C)O)C(=O)N1)C(=O)O,SSTR2,,,,EC50,41 nM
CC(C)C[C@H](NC(=O)[C@H](CCCNC(=N)N)NC(=O)[C@H](CC(C)C)NC(=O)[C@H](CO)NC(=O)[C@@H]1CCCN1C(=O)[C@H](CO)NC(=O)[C@H](CCCNC(=N)N)NC(=O)[C@H](CCC(N)=O)NC(=O)[C@H](C)N)C(=O)N[C@@H](CCCNC(=N)N)C(=O)N[C@@H](Cc1ccccc1)C(N)=O,"Short neuropeptide F receptor (Drosophila melanogaster, UniProt Q9VW75)","calcium mobilization, agonist","HEK-293T transfected, Gα16",37 °C,EC50,2.04 ± 1.48 nM
CCCCC/C=C\C/C=C\C/C=C\C/C=C\CCCC(=O)OC(CO)CO,"Cannabinoid receptor 2 (CNR2, Homo sapiens, UniProt P34972, Q63R)","β-arrestin 2 recruitment, agonist, BRET",HEK293 coexpressing GRK2,,EC50,1200 nM
CCCN(C/C=C/I)C1CCc2ccc(O)cc2C1 (stereo not shown),"Alpha-2A adrenergic receptor (ADRA2A, Homo sapiens, UniProt P08913)","G protein activation, agonist, BRET, item: Gαi1","HEK293T, transfected",Emax below 50%,EC50,80 ± 20 nM
O=C(O)[C@H]1O[C@H](OP(=O)(O)OP(=O)(O)OC[C@H]2O[C@@H](n3ccc(=O)[nH]c3=O)[C@H](O)[C@@H]2O)[C@H](O)[C@@H](O)[C@@H]1O,"P2Y purinoceptor 14 (P2RY14, Homo sapiens, UniProt Q15391)","cAMP accumulation inhibition, agonist",HEK293 expressing P2RY14,"dose as dendrimer conjugate, added: forskolin 30 µM",EC50,370 ± 70 nM
Clc1ccc(Cl)c(-c2c(Cl)ccc(Cl)c2Cl)c1Cl,ESR1,"reporter gene, agonist, luciferase",,,EC50,2900 nM
[BH3-][P+](O)(OP(=O)(O)OC[C@H]1O[C@@H](n2cnc3c(N)ncnc32)[C@H](O)[C@@H]1O)OP(=O)(O)OP(=O)(O)OC[C@H]1O[C@@H](n2ccc(=O)[nH]c2=O)[C@H](O)[C@@H]1O (stereo partly shown),P2RY2,"intracellular calcium rise, agonist",1321N1 expressing human P2Y2,37 °C,EC50,> 100000 nM
CC(C)C[C@H](NC(=O)[C@H](CO)NC(=O)[C@H](Cc1c[nH]c2ccccc12)NC(=O)[C@H](Cc1c[nH]c2ccccc12)NC(=O)[C@H](CC(=O)O)NC(=O)[C@@H](NC(=O)CN)C(C)C)C(=O)O,Transcriptional regulator ComR,,Streptococcus mutans,,EC50,3900 nM
[BH3-][P+](O)(OP(=O)(O)OC[C@H]1O[C@@H](n2cnc3c(N)ncnc32)[C@H](O)[C@@H]1O)OP(=O)(O)OP(=O)(O)OC[C@H]1O[C@@H](n2cnc3c(N)ncnc32)[C@H](O)[C@@H]1O (stereo partly shown),P2RY4,"intracellular calcium rise, agonist",1321N1 expressing human P2Y4,37 °C,EC50,> 100000 nM
O=c1ccn([C@@H]2O[C@H](COP(=O)(O)OP(=O)(O)OP(=O)(O)Oc3ccccc3)[C@@H](O)[C@H]2O)c(=O)[nH]1,P2RY4,"PLC activation, agonist","1321N1, transfected",,EC50,> 10000 nM
autoinducing peptide I,AgrC-I sensor Kin mutant (Staphylococcus aureus),"reporter gene, agonist","Staphylococcus aureus P3-blaZ reporter, Staphylococcus aureus",,EC50,> 10000 nM
O=C(c1cc2cccnc2n1-c1ccc(Cl)c(Cl)c1)N1CC(F)(F)C1,"3',5'-cyclic-AMP phosphodiesterase 4B (PDE4B, Homo sapiens, UniProt Q07343)","forskolin-induced cAMP, CRE luciferase reporter",HEK293 expressing PDE4B,added: forskolin 10 µM,EC50,500 nM
BP(=O)(OC[C@H]1O[C@@H](n2ccc(=O)[nH]c2=O)[C@H](O)[C@@H]1O)OP(=O)(O)OP(=O)(O)OC[C@H]1O[C@@H](n2ccc(=O)[nH]c2=O)[C@H](O)[C@@H]1O (stereo partly shown),P2Y purinoceptor 1,"intracellular Ca2+ elevation, agonist, fura-2",1321N1 cells expressing turkey P2Y1,37 °C,EC50,> 100000 nM
meta-bromo-thiolactone,"Transcriptional activator protein LasR (lasR, Pseudomonas aeruginosa, UniProt P25084)","reporter gene, agonist, luminescence",Escherichia coli plasB-lux,,EC50,4 nM
O=S(=O)(c1ccc(O)cc1)c1ccc(O)cc1,ESR1,"reporter gene, agonist, luciferase",,,EC50,2200 nM
BP(=O)(OC[C@H]1O[C@@H](n2ccc(=O)[nH]c2=O)[C@H](O)[C@@H]1O)OP(=O)(O)OP(=O)(O)OP(=O)(O)OC[C@H]1O[C@@H](n2ccc(=O)[nH]c2=O)[C@H](O)[C@@H]1O (stereo partly shown),P2RY2,"calcium signal, agonist, fluorescence",,,EC50,24600 nM
Clc1ccc(C2CC3CCC2N3)cn1 (racemic),"Acetylcholine receptor; alpha1/beta1/delta/gamma (Homo sapiens, UniProt P02708+P07510+P11230+Q07001)","calcium influx, agonist",TE671 expressing human α1β1γδ AChR,,EC50,260 ± 40 nM
CCCCC/C=C\C/C=C\C/C=C\C/C=C\CCCC(=O)NCCO,"Glucose-dependent insulinotropic receptor (GPR119, Homo sapiens, UniProt Q8TDV5)","cAMP accumulation, agonist",HEK293,30 min,EC50,19700 nM
melittin,,CD titration,POPC 100% POPG 0% vesicles,"pH 7.0, 40 °C",free energy of partitioning,-6.1 kcal/mol
BP(=O)(OC[C@H]1O[C@@H](n2cnc3c(N)ncnc32)[C@H](O)[C@@H]1O)OP(=O)(O)OP(=O)(O)OP(=O)(O)OC[C@H]1O[C@@H](n2cnc3c(N)ncnc32)[C@H](O)[C@@H]1O (stereo partly shown),P2Y purinoceptor 1,"calcium signal, agonist, fluorescence",,,EC50,6900 nM
Nc1ncnc2c1ncn2[C@@H]1O[C@H](COP(=O)(O)OP(=O)(O)OP(=O)(O)O)[C@@H](O)[C@H]1O,"cAMP-dependent protein kinase catalytic subunit alpha (PRKACA, Homo sapiens, UniProt P17612)","binding of FAM-SMO peptide, activator, fluorescence polarization",,pH 7,EC50,19200 nM
C[C@@]1(O)CC[C@@]2(C)[C@@H](CC[C@@H]3[C@@H]2CC[C@]2(C)[C@@H](c4cc(CO)on4)CC[C@@H]32)C1,"GABA A receptor alpha-2/beta-2/gamma-2 (Homo sapiens, UniProt P18507+P47869+P47870)","GABA current potentiation, positive modulator, two-electrode voltage clamp",Xenopus laevis oocytes,"30 s preincubation, added: GABA EC10",EC50,1410 ± 470 nM
CC(C)C[C@H](NC(=O)[C@H](CO)NC(=O)[C@H](Cc1c[nH]c2ccccc12)NC(=O)[C@H](Cc1c[nH]c2ccccc12)NC(=O)[C@H](CC(=O)O)NC(=O)[C@H](CC(C)C)NC(=O)[C@H](C)N)C(=O)O,Transcriptional regulator ComR,,Streptococcus mutans,,EC50,670 nM
